Experimental data of several laboratories.
Protocols differ between the studies behind these lines.
Target: Cyclin-dependent kinase 19 (CDK19, Homo sapiens, UniProt Q9BWU1)
UniProt Q9BWU1, sequence (whole entry, looked up): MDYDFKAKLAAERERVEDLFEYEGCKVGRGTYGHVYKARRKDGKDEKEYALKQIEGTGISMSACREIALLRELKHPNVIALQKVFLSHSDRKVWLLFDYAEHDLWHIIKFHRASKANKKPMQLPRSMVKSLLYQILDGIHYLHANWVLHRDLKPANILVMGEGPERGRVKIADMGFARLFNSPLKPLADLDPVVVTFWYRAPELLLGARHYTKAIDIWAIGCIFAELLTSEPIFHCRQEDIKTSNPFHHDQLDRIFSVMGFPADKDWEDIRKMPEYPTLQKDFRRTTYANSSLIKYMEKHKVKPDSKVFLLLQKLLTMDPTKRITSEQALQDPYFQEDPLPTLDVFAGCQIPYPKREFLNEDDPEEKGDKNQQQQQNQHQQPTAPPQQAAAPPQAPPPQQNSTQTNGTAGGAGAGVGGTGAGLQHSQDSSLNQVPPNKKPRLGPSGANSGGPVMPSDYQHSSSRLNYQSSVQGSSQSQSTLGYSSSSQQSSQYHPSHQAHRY

SMILES | mode | method | concentration | baseline | remaining binding [%]
C=CC(=O)N1CCC(COCC(=O)N2CCN(c3nc(-c4cnc(N)nc4C(F)F)nc(N4CCOC[C@@H]4C)n3)CC2)CC1 | – | KINOMEscan | 1 µM | DMSO control | 99
c1cncc(-c2cccc(Nc3nccc(NC4CCCCC4)n3)c2)c1 | – | KINOMEscan | 10 µM | – | 58
Cc1cc([C@@H](C)Nc2ccccc2C(=O)O)c2nc(N3CCC(F)(F)CC3)c(C#N)c(=O)n2c1 | – | KINOMEscan | 1 µM | control | 94
O=C(c1ccc(Nc2ncc(Cl)c(-c3cc4ccccc4s3)n2)cc1)N1CCC(N2CCCC2)CC1 | binding | KINOMEscan competition binding | 1 µM | DMSO control | 100
COc1ncc2cc3ccccc3nc2c1C#N | – | KINOMEscan | 5 µM | DMSO | 91
O=C(c1ccc(Nc2nccc(-c3cc4ccccc4s3)n2)cc1)N1CCC(N2CCCC2)CC1 | binding | KINOMEscan competition binding | 1 µM | DMSO control | 100
Nc1ncc2c(n1)-c1c([nH]c3ccc(C#CC4CC4)cc13)CCCC2 | – | scanMAX | 1 µM | – | 85
O=C(c1ccc(Nc2ncc(Cl)c(-c3ccc(Cl)s3)n2)cc1)N1CCC(N2CCCC2)CC1 | binding | KINOMEscan competition binding | 1 µM | DMSO control | 100
CCN1CCN(Cc2ccc(C(=O)Nc3ccc(C)c(Oc4ccc5c(c4)CC(=O)N5)c3)cc2C(F)(F)F)CC1 | – | KINOMEscan | 1 µM | – | 93
COc1cnc(Nc2cccc(S(N)(=O)=O)c2)nc1N1CCN(c2ccccc2)CC1 | – | KINOMEscan | 1 µM | – | 100
Cc1cc(S(=O)(=O)N[C@H]2CC[C@H](CN3CCN(c4ccc(C5CCC(=O)NC5=O)cc4F)CC3)CC2)ccc1Nc1ncc(C(F)(F)F)c(N2CCC[C@](C)(O)C2)n1 (stereo partly drawn) | – | KINOMEscan | 1 µM | – | 94
CC(C)(C)c1ccc(-c2nc(CBr)nn2-c2cccc(O)c2)cc1 | – | KINOMEscan | 10 µM | – | 56
N#Cc1ccccc1CSc1nnc2c(n1)[nH]c1ccccc12 | – | KINOMEscan | 10 µM | DMSO control | 100
CNS(=O)(=O)c1ccc(Nc2ncc(C(F)(F)F)c(N3CCC[C@](C)(O)C3)n2)c(C)c1 | – | KINOMEscan | 1 µM | – | 88
O=C(NCC1CCOCC1)c1n[nH]cc1NC(=O)c1c(F)cccc1F | – | scanMAX | 1 µM | untreated | 100

Repeated from above:
SMILES | mode | method | concentration | baseline | remaining binding [%]
CC(C)(C)c1ccc(-c2nc(CBr)nn2-c2cccc(O)c2)cc1 | – | KINOMEscan | 10 µM | – | 56
